# Measured values gathered from unrelated publications.
# Several values in a cell are separate wells, animals, samples, runs or records. ± gives the spread as reported.
# HCRTR1: Orexin/Hypocretin receptor type 1 (HCRTR1, Homo sapiens, UniProt O43613)
# Sequence of UniProt O43613 (whole entry, looked up): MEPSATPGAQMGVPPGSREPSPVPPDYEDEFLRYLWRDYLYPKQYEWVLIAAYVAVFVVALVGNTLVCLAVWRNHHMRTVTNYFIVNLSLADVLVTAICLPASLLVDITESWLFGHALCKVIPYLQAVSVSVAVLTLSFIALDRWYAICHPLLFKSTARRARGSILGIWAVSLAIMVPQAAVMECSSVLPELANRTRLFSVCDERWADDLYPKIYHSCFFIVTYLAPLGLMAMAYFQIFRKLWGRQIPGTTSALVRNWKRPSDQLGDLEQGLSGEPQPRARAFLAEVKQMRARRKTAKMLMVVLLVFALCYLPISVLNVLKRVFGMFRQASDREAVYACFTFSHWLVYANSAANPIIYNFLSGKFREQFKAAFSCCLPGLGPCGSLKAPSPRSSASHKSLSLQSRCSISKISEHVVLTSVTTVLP
# Sequence of UniProt P55072 (whole entry, looked up): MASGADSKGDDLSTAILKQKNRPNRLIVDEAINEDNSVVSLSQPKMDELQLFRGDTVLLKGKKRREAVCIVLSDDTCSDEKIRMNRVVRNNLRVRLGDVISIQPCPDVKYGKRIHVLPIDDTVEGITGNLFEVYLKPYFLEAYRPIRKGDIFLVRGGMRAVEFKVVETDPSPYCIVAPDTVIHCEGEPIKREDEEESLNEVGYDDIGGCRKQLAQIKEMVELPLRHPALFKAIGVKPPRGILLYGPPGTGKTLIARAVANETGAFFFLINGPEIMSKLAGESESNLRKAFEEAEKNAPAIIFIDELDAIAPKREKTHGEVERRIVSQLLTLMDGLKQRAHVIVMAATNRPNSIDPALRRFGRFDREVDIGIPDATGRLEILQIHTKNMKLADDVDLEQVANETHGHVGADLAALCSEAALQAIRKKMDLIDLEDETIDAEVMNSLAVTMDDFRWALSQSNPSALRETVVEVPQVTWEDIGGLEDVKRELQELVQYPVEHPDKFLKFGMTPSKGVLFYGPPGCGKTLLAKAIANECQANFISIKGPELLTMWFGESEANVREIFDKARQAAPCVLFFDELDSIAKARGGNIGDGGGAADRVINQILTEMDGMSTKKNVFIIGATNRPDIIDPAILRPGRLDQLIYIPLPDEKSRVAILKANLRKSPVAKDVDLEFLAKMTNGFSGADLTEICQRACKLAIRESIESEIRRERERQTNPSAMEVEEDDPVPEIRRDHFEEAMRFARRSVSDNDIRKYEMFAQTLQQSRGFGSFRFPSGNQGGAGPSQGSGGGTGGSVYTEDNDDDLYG
Molecule,tested on,test,system,conditions,endpoint,value
CC(C)C[C@H](NC(=O)[C@@H](NC(=O)N[C@H](C(=O)NCc1ccccc1)C(C)C)C(C)C)C(=O)N[C@@H](CC(C)C)C(=O)[C@@]1(C)CO1,rabbit 26S proteasome beta2,trypsin-like activity,,"30 min, 37 °C, together with: Ac-RLR-AMC",IC50,> 300 nM
CC(=O)C(=O)O,HDAC from MCF7 cells,inhibitor,,,IC50,69000 ± 12000 nM
CC(C)C[C@H](NC(=O)[C@@H](NC(=O)N[C@H](C(=O)NCc1ccccc1)C(C)C)C(C)C)C(=O)[C@@]1(C)CO1,rabbit 26S proteasome beta2,trypsin-like activity,,"30 min, 37 °C, together with: Ac-RLR-AMC",IC50,> 10000 nM
COc1cc(C(=O)OCCCN2CCCN(CCCOC(=O)c3cc(OC)c(OC)c(OC)c3)CC2)cc(OC)c1OC,nucleoside transporters,gemcitabine flux,"mouse, jejunum in situ perfusion",together with: gemcitabine 5 µM,IC50,212000 nM
COc1ccc(CC2c3cc(OC)c(OC)cc3CCN2CC(=O)NCc2ccccc2)cc1NC(C)=O (stereo not drawn),HCRTR1,"calcium signal, antagonist, fluorescence",,,Kb,> 10000 nM
O=C(/C=C/c1ccc2ncn(CCCl)c(=O)c2c1)NO,histone deacetylase,"enzyme activity, inhibitor",HeLa nuclear extract,,IC50,2385 ± 9 nM
O=C(NO)c1ccc(NC(=O)[C@@H](NC(=O)c2cccc(Br)c2)c2ccccc2)cc1,HDAC (HeLa nuclear extract),"enzyme activity, inhibitor",,,IC50,13.7 ± 0.7 nM
O=C(/C=C/c1ccc2ncn(Cc3ccc(F)cc3)c(=O)c2c1)NO,histone deacetylase,"enzyme activity, inhibitor",HeLa nuclear extract,,IC50,253 ± 15 nM
Nc1cc2c(cc1[N+](=O)[O-])[nH]c1c(-c3ccccc3)nccc12,NQO2,protection from toxicity,MDA-MB-468,"3 h, together with: CB1954 100 µM plus NRH 100 µM",IC50,2100 ± 1200 nM
O=C(/C=C/c1ccc2ncn(Cc3cccc(F)c3)c(=O)c2c1)NO,histone deacetylase,"enzyme activity, inhibitor",HeLa nuclear extract,,IC50,588 ± 12 nM
COc1ccc(C(=O)N[C@H](C(=O)Nc2ccc(C(=O)NO)cc2)c2ccccc2)cc1,HDAC (HeLa nuclear extract),"enzyme activity, inhibitor",,,IC50,20.5 ± 1.1 nM
CC(c1ccc(C(F)(F)F)nc1)S(C)(=O)=NC#N (stereo not drawn),mAb-19F2 (BALB/c mouse monoclonal antibody),"antibody binding, indirect competitive ELISA",,,IC50,> 1 µg/mL
O=C(/C=C/c1ccc2c(=O)n(Cc3ccc(F)cc3)cnc2c1)NO,histone deacetylase,"enzyme activity, inhibitor",HeLa nuclear extract,,IC50,48 nM
CN=C([S-])N/N=C(C)/C(C)=N/NC([S-])=NC.[Cu+2],human α-synuclein,"peroxynitrite-induced nitration, inhibitor, ELISA",,together with: α-synuclein 1 µM,IC50,1000 nM
O=C(NC(=O)c1c(F)cccc1F)Nc1cc(Cl)c(OC(F)(F)C(F)C(F)(F)F)cc1Cl (stereo not drawn),mAb-19F2 (BALB/c mouse monoclonal antibody),"antibody binding, indirect competitive ELISA",,,IC50,> 1 µg/mL
pneumocandin H,"1,3-beta-D-glucan synthase (Candida albicans ATCC 10231)","enzyme activity, inhibitor",membrane preparation,"60 min, pH 7.5, 30 °C, together with: UDP-[14C]-glucose 1 mM",IC50,9.05 ± 1.53 µg/mL
O=C(/C=C/c1ccc2ncn(CC3CCCCC3)c(=O)c2c1)NO,histone deacetylase,"enzyme activity, inhibitor",HeLa nuclear extract,,IC50,391 ± 28 nM
O=C(NO)c1ccc(NC(=O)[C@@H](NS(=O)(=O)c2ccc(C(F)(F)F)cc2)c2ccccc2)cc1,HDAC (HeLa nuclear extract),"enzyme activity, inhibitor",,,IC50,85.5 ± 6.7 nM
O=C(/C=C/c1ccc2c(=O)n(Cc3ccccc3)cnc2c1)NO,histone deacetylase,"enzyme activity, inhibitor",HeLa nuclear extract,,IC50,247 ± 21 nM
O=C(NO)c1ccc(NC(=O)[C@@H](NS(=O)(=O)c2ccc(Cl)cc2)c2ccccc2)cc1,HDAC (HeLa nuclear extract),"enzyme activity, inhibitor",,,IC50,126 nM and 125 nM
COc1cc2c(cc1OC)C(Cc1ccc(OC(C)C)cc1)N(CC(=O)NCc1ccccc1)CC2 (stereo not drawn),HCRTR1,"calcium signal, antagonist, fluorescence",,,Kb,489 nM
Cc1c2cnccc2c(C)c2c1c1ccccc1n2CCNCc1ccccc1,NQO2,protection from toxicity,MDA-MB-468,"3 h, together with: CB1954 100 µM plus NRH 100 µM",IC50,2300 ± 1900 nM
Nc1ncnc2c1ncn2[C@@H]1O[C@H](COP(=O)(O)OP(=O)(O)OP(=O)(O)O)[C@@H](O)[C@H]1O,SUR2A entire Q/N mutant/Kir6.2,"KATP channel current, inhibitor, inside-out patch clamp",HEK293,with Mg2+,IC50,64000 ± 4900 nM
CC(COc1ccc(Oc2ccccc2)cc1)Oc1ccccn1 (stereo not drawn),mAb-19F2 (BALB/c mouse monoclonal antibody),"antibody binding, indirect competitive ELISA",,,IC50,> 1 µg/mL
O=C1c2cc(O)cc(O)c2C(=O)c2c(O)cc(O)cc21,"VCP (Homo sapiens, UniProt P55072)",,,,IC50,39800 ± 12600 nM
Cc1cc(N)c2ccccc2[n+]1CCCCCCCCCC[n+]1c(C)cc(N)c2ccccc21,"CNG channel CNGA1-P, Bos taurus","cGMP-activated current, blocker, inside-out patch clamp",,"pH 7.2, room temperature, 0 mV holding, steps to +20 mV, together with: cGMP 2 mM",IC50,80 ± 0.1 nM
pneumocandin A0,"1,3-beta-D-glucan synthase (Candida albicans ATCC 10231)","enzyme activity, inhibitor",membrane preparation,"60 min, pH 7.5, 30 °C, together with: UDP-[14C]-glucose 1 mM",IC50,3.68 ± 0.6 µg/mL
Cc1ccc(Cn2cnc3cc(/C=C/C(=O)NO)ccc3c2=O)cc1,histone deacetylase,"enzyme activity, inhibitor",HeLa nuclear extract,,IC50,44 nM and 41 to 44 nM
CCCC(CCC)C(=O)N[C@H](C(=O)Nc1ccc(C(=O)NO)cc1)c1ccccc1,HDAC (HeLa nuclear extract),"enzyme activity, inhibitor",,,IC50,22.8 ± 1.8 nM
pneumocandin K,"1,3-beta-D-glucan synthase (Candida albicans ATCC 10231)","enzyme activity, inhibitor",membrane preparation,"60 min, pH 7.5, 30 °C, together with: UDP-[14C]-glucose 1 mM",IC50,4.99 ± 0.82 µg/mL
CC(C)c1cccc(C(C)C)c1NC(=O)N[C@H](C(=O)Nc1ccc(C(=O)NO)cc1)c1ccccc1,HDAC (HeLa nuclear extract),"enzyme activity, inhibitor",,,IC50,47.7 ± 3.3 nM
[Zn+2],"GALR1, human","receptor activation, antagonist, NanoBiT mini-Go recruitment",HEK293T,"pH 7.3, room temperature, together with: galanin 1 µM",IC50,47200 nM
CC(C)N1C(=O)N(c2ccccc2)CS/C1=N\C(C)(C)C,mAb-19F2 (BALB/c mouse monoclonal antibody),"antibody binding, indirect competitive ELISA",,,IC50,0.00181 µg/mL
COc1ccccc1C(=O)N[C@H](C(=O)Nc1ccc(C(=O)NO)cc1)c1ccccc1,HDAC (HeLa nuclear extract),"enzyme activity, inhibitor",,,IC50,33.6 ± 2.3 nM
CC(C)[C@H](NC(=O)[C@@H]1CCCN1C(=O)[C@H](CCCNC(=N)N)NC(=O)[C@H](CS)NC(=O)[C@H](Cc1c[nH]c2ccccc12)NC(=O)[C@H](CCCNC(=N)N)NC(=O)[C@@H](Cc1ccccc1)NC(=O)[C@H](Cc1c[nH]cn1)NC(=O)[C@H](CCC(=O)O)NC(=O)[C@H](CS)NC(=O)[C@H](CS)NC(=O)[C@H](CCCCN)NC(=O)[C@@H]1CC(=O)N[C@@H](CCCNC(=N)N)C(=O)N[C@@H](C)C(=O)N[C@@H](CC(=O)O)C(=O)N[C@H](Cc2ccc(O)cc2)C(=O)N1)C(N)=O [technetium-99m labelled],,,"C57 mice, muscle","intravenous, 0.037 MBq, 0.5 h",tissue uptake,0.72 ± 0.18 %ID/g
O=C(NC(=O)c1c(F)cccc1F)Nc1ccc(Cl)cc1,mAb-19F2 (BALB/c mouse monoclonal antibody),"antibody binding, indirect competitive ELISA",,,IC50,> 1 µg/mL
O=C(NO)c1ccc(NC(=O)[C@@H](NC(=O)c2ccccc2)c2ccccc2)cc1,HDAC (HeLa nuclear extract),"enzyme activity, inhibitor",,,IC50,28.7 ± 2.2 nM
CCc1ccc(C(=O)NN(C(=O)c2cc(C)cc(C)c2)C(C)(C)C)cc1,mAb-19F2 (BALB/c mouse monoclonal antibody),"antibody binding, indirect competitive ELISA",,,IC50,> 1 µg/mL
O=C(/C=C/c1ccc2c(=O)n(CC3CCCC3)cnc2c1)NO,histone deacetylase,"enzyme activity, inhibitor",HeLa nuclear extract,,IC50,72 ± 1 nM
